Measurements from different studies.
Every numbered part comes from another study and shows a few of its results, in no order. Positions count from the first letter of the parent shown.

Sample 1
Target: Histone acetyltransferase KAT6A, both winged helices, GST fusion (KAT6A, Homo sapiens, UniProt Q92794, residues 1-181)
Technique: protein binding microarray
Molecule type: double-stranded DNA, one strand shown
Medium: in vitro
Concentration: not given
Notes: 8-mer, flanks averaged, mean of 2 arrays, mostly near background
Relative to: not given
Reading: higher = stronger binding
Construct (chain): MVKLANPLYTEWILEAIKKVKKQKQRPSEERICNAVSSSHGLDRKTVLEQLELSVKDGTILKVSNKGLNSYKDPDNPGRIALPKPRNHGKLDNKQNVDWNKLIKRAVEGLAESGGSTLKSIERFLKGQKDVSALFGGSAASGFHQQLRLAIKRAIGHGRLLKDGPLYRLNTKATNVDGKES
Strand	E-score
AACTATAA	-0.0795
CCCCCTAG	-0.282
ATTTCAAG	-0.117
ACCATTTC	-0.119
AGACGACT	-0.0567
GACCGTCA	0.0747
ATGTTGGA	-0.114
AGTATAGC	-0.0642
ATCGTTGG	-0.196
CTAGATTC	-0.216
GCTTAGAA	-0.00711
GCACCGAC	0.138
AATGCGGC	0.232
TGAGGAAA	-0.105
GCTCTCCC	0.0411
GACTGGAA	-0.0721
AACAATTC	-0.039
AGCGCTAA	0.338
CAGCGTAC	0.203
AGTATTAC	-0.0667
AATACTGA	-0.0461
ACAGTGTG	-0.0622
CACTTCGC	-0.0101
CTTGGAAC	-0.0517
CTGGCTCA	-0.118

Sample 2
Target: Phosphate system positive regulatory protein PHO4, full length, GST-tagged (PHO4, Saccharomyces cerevisiae, UniProt P07270, residues 1-312)
Technique: competition protein-binding microarray
Molecule type: double-stranded DNA, one strand shown
Medium: in vitro
Concentration: 2 µM
Notes: whole 60-bp probe, lowest competitor level
With: Cbf1 competitor, 0.05 µM
Reading: higher = stronger binding
All sequences stand within: … GTCTTGATTCGCTTGACGCTGCTG
Target sequence (chain): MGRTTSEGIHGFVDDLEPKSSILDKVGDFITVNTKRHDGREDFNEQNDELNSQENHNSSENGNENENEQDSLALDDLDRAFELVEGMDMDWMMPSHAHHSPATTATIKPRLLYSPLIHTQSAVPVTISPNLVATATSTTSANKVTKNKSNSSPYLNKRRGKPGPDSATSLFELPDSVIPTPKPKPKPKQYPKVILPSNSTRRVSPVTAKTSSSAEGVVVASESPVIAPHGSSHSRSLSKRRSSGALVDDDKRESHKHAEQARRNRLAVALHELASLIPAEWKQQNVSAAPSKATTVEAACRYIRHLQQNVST
Strand	fluorescence intensity [a.u.]
AACGAACCCGCAAGACGCGTGCAAAGCTGGTTAGAT	10700
GTCTTGTCTCATTGTCACAATACTTTCCCCACTTCA	4350
TGCGCAACAACTTTTCACGTGATATTATGTCTAGAA	12800
TTGCTGTTTCTAAGAAGCGTGGGACAACGCAATGAA	8600
TTGAATACATAATCGCACGTGATGGAACAATAAAGA	18600
CTAACGAAGGTTTGTGCTGTGGGTGACAAGCCAAGT	4830
AAAGCGGTAATTTGTCACAAAACTTCACATATCTAT	3430
ATATCTATGGACGTCTTCGTGCCAGAAAGCGGCGAA	5210
CTTTCCCGATCTTGATAGGTGGGTGTAGCACATTTG	4190
CTTCTGTAAATTTGTCCCGTGGGTGGACGCGCCCCG	9700
GTCAGTATCTTCCATCACATGACAATCTTGTGCATC	8390
AAATTACTAAGTTGTTTGGTGGGTGACGCCGTATGA	3780
ATTCGTCAATGAAGGCACATGGGGCGGTAGGGTTCG	12400
GAATTTTGCGTTCCGCACGTTTCTCAAGTACATAAT	12300
CTCGTTACTACCCATCACGTGTCGGATCCCTCGCGA	18800
CATACCCAACCTTGGCTCGTGGGTGAAGATATTTGT	12300
CTACCACTCTGGAACGCCGTGACGGGCTCAGCCCCG	4150
TTAAATTCAAGTTACCTCGTGTTCCTAGTCATTGGC	10900
TTTCTCGAATTTTTGCACGTGAAAACGGTGAACCTC	13400

Sample 3
Target: RNA binding protein fox-1 homolog 2, RRM domain, GST-SBP tag (RBFOX2, Homo sapiens, UniProt O43251-10, residues 100-194)
Technique: RNA Bind-n-Seq
Molecule type: RNA
Medium: in vitro
Concentration: 365 nM
Notes: natural RNA segment, single round, ends assumed
Relative to: no-protein control
Reading: higher = stronger binding
All sequences stand within: GGGAGUUCUACAGUCCGACGAUC … UGGAAUUCUCGGGUGCCAA
Residues (chain): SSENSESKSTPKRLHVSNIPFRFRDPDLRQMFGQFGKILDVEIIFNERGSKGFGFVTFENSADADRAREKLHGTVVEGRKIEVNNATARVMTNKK
Strand	RBNS enrichment (R)
AUCUCUUGGCCCGCCGCGUGGACCCUCCCUUCAGGCCAAGUCUGCAAUCAGAAGAGGAUGUGAGCCAGUUUGAUGCACGAUUCACACGGCAGACGCCGGUAGAUAGUCCA	0.772
UAACUUGGCAAACUUUCUAUUGCCUGUCCCAUGUGCAUCUUAUUUAAAAUUUCCCCCAUGGAAAUCACUCUCCUGUUGACUAUUUCCAGAGCUCUAGGUGUUUAGGCAGC	1.68
AUUAUUUCCACGUAAGGGAAAUAAGGUAGUACUUUUCUUUUUAUAUUUCUAUGCUUAAAAUUCUCUUUCCUAGUCAAAAAUUGCCCAAAUCUGUGUUUGCUUUCUGCUUG	3.06
AAGUGUGUGCGCAUGCAUGAGUGCGCACACAAGUUUGAGUGUAUGAAUUCUUGUGCCCACACAUGCUGCCCUGCAUCCCUUCACUGCCUAUCCCCCUGCCCCCGCCUCAC	14.2
GUCCGCUCAGCACACGCCUUGUUACGAGCAAGUGCCGGCUGGACCCAAGCCCUGCAUCCCCACAUGCGGGGCAGAGGCCCUUCUCUCCGCCAAAUGUCUACACAGUAUAC	0.34
AGUGUCCCUUUUGUGUCUGGCUUGCUGAGUAUAGAAGCUGUCACCUGGACGAUUCUGCUCCUCAGCUCCAAAGAAUCCUGGGGUCAACGUCCCAGGCCAGCCGCAUGGGA	0.269
AAAAAUACUUGAAAAUUGUAUGAUGUAUGAGAAGACAGAGCCCCCUAGUUUUGUAUUUUGUCCUGUGACUGCCAUGCGUUCCACCAGAAAGCCGCUCUAUUUUGGUCUCU	1.13
CUUUAACUGGACGGACGUUGUUAGGGUGAGAAAUAAAAGGACAGCCUCCAAAGGUUGAGAGCAAGAAUUGUUUUUUUCUUGGAUAUCAAAGGGAUUAUCACAGCGCAAUC	0.467

Sample 4
Target: CCND3, cyclin fold, Cln2 fusion (human)
Technique: yeast growth competition, sequencing
Medium: yeast
Notes: weak parent motif
Relative to: not given
Reading: higher = stronger binding
Starting sequence: CDKN1B docking peptide (human); PSACRNLFGPVDH
Change	normalised enrichment score
PSAQRNLFGPVDH [C4Q]	0.0404
PSACRNLFGSVDH [P10S]	0.135
PSACRNLFGPVAH [D12A]	0.185
PSICRNLFGPVDH [A3I]	0.113
PSACRNLFGPVQH [D12Q]	0.161
PSDCRNLFGPVDH [A3D]	0.0226
PSACRNLTGPVDH [F8T]	0.128
PSACKNLFGPVDH [R5K]	0.185
PSACRNLFGTVDH [P10T]	0.16
PSACRNPFGPVDH [L7P]	0.0327
PSACRNVFGPVDH [L7V]	0.118
PSACRNLYGPVDH [F8Y]	0.0894
PRACRNLFGPVDH [S2R]	0.129
PSACRRLFGPVDH [N6R]	0.0528
PSACRNLFGPVDG [H13G]	0.0876
PSACRQLFGPVDH [N6Q]	0.15

Sample 5
Substance: PhoQ, residues 284 288 289 292 302 303 AGGCYF
Technique: Sort-seq
Item: YFP reporter
Medium: E. coli
Notes: PhoQ-PhoP variant library
With: 10 µM Mg2+
Relative to: high Mg2+ state
Reading: higher = stronger signaling
target	fold induction
PhoP, residues 12 14 15 18 19 VHTVL (Escherichia coli, UniProt P23836)	6.26
PhoP, residues 12 14 15 18 19 ICWRQ (Escherichia coli, UniProt P23836)	7.2
PhoP, residues 12 14 15 18 19 TQCLL (Escherichia coli, UniProt P23836)	0.948

Repeated from above (sample 3):
Strand	RBNS enrichment (R)
AGUGUCCCUUUUGUGUCUGGCUUGCUGAGUAUAGAAGCUGUCACCUGGACGAUUCUGCUCCUCAGCUCCAAAGAAUCCUGGGGUCAACGUCCCAGGCCAGCCGCAUGGGA	0.269
AUUAUUUCCACGUAAGGGAAAUAAGGUAGUACUUUUCUUUUUAUAUUUCUAUGCUUAAAAUUCUCUUUCCUAGUCAAAAAUUGCCCAAAUCUGUGUUUGCUUUCUGCUUG	3.06
AUCUCUUGGCCCGCCGCGUGGACCCUCCCUUCAGGCCAAGUCUGCAAUCAGAAGAGGAUGUGAGCCAGUUUGAUGCACGAUUCACACGGCAGACGCCGGUAGAUAGUCCA	0.772
AAGUGUGUGCGCAUGCAUGAGUGCGCACACAAGUUUGAGUGUAUGAAUUCUUGUGCCCACACAUGCUGCCCUGCAUCCCUUCACUGCCUAUCCCCCUGCCCCCGCCUCAC	14.2
GUCCGCUCAGCACACGCCUUGUUACGAGCAAGUGCCGGCUGGACCCAAGCCCUGCAUCCCCACAUGCGGGGCAGAGGCCCUUCUCUCCGCCAAAUGUCUACACAGUAUAC	0.34
UAACUUGGCAAACUUUCUAUUGCCUGUCCCAUGUGCAUCUUAUUUAAAAUUUCCCCCAUGGAAAUCACUCUCCUGUUGACUAUUUCCAGAGCUCUAGGUGUUUAGGCAGC	1.68
CUUUAACUGGACGGACGUUGUUAGGGUGAGAAAUAAAAGGACAGCCUCCAAAGGUUGAGAGCAAGAAUUGUUUUUUUCUUGGAUAUCAAAGGGAUUAUCACAGCGCAAUC	0.467
AAAAAUACUUGAAAAUUGUAUGAUGUAUGAGAAGACAGAGCCCCCUAGUUUUGUAUUUUGUCCUGUGACUGCCAUGCGUUCCACCAGAAAGCCGCUCUAUUUUGGUCUCU	1.13
